# Published values gathered from unrelated publications.
# Compare with care: the assays were run in different laboratories. Numbers after ± are the reported error.
# Organism: Trypanosoma brucei
Compound,test,system,setting,how to read,quantity,value
OC[C@H]1O[C@@H](O[C@H]2[C@H](O)[C@@H](O)[C@H](SSCc3ccc(CSS[C@@H]4O[C@H](CO)[C@@H](O[C@@H]5O[C@H](CO)[C@H](O)[C@H](O)[C@H]5O)[C@H](O)[C@H]4O)c4ccccc34)O[C@@H]2CO)[C@H](O)[C@@H](O)[C@H]1O,"parasite growth, flow cytometry",,"5 µM, 24 h",,viability,91.9%
Cc1ccc(-c2nc3c(=O)n(C)c(=O)nc-3n(C)n2)cc1,"parasite growth, resazurin",,73 h,,EC50,1.22 µM
OC[C@H]1O[C@@H]([Se][Se][C@@H]2O[C@H](CO)[C@H](O)[C@H](O)[C@H]2O)[C@H](O)[C@@H](O)[C@H]1O,"parasite growth, flow cytometry",,"5 µM, 24 h",,viability,96.4%
CN(C(=O)Cc1ccc(Cl)c(Cl)c1)C1COCC1N1CCCC1 (centres unmarked),parasite growth,,,,EC50,16.6 µM
CC(C)=CCNCCOC1C2CC3CC(C2)CC1C3 (centres unmarked),,bloodstream form,72 h,,IC50,1.5 ± 0.1 µg/mL
C[C@H](Nc1c(-c2c(F)cc(OCCCN(C)C)cc2F)c(Cl)nc2ncnn12)C(F)(F)F,"parasite growth, SYBR Green",,72 h,,EC50,0.146 µM
Cc1nn(-c2ccccc2)nc1CNS(=O)(=O)c1cccs1,parasite growth,,,,EC50,32 µM
CC(=O)OC[C@H]1O[C@@H]([Se][Se][C@@H]2O[C@H](COC(C)=O)[C@H](OC(C)=O)[C@H](OC(C)=O)[C@H]2OC(C)=O)[C@H](OC(C)=O)[C@@H](OC(C)=O)[C@H]1OC(C)=O,"parasite growth, flow cytometry",,"5 µM, 24 h",,viability,3.3%
CN1CCN([C@@H]2CCCC[C@H]2N(C)C(=O)Cc2ccc(Cl)c(Cl)c2)CC1,parasite growth,,,,EC50,3.3 µM
O=c1c2ccccc2[se]n1-c1ccccc1,"cell viability, flow cytometry, PI",bloodstream form,24 h,,EC50,9 µM
O=C(Cc1ccc(Cl)c(Cl)c1)NCCN1CCCC1,parasite growth,,72 h,,EC50,16.3 µM
COC(=O)c1[nH]c(C(=O)OC)c2c1c1c3cc(Cl)ccc3[nH]c1c1[nH]c3ccc(Cl)cc3c12,,Hep G2,72 h,reference: Hep G2 over T. brucei,selectivity ratio,~12
CN(C(=O)Cc1ccc(Cl)c(Cl)c1)[C@@H](CN1CCCC1)c1ccccc1,parasite growth,,72 h,,EC50,5.4 µM
CC(=O)N[C@@H]1[C@@H](OC(C)=O)[C@H](OC(C)=O)[C@@H](COC(C)=O)O[C@H]1[Se][Se][C@@H]1O[C@H](COC(C)=O)[C@@H](OC(C)=O)[C@H](OC(C)=O)[C@H]1NC(C)=O,"parasite growth, flow cytometry",,"5 µM, 24 h",,viability,63.3%

# Some of these lines once more:
Compound,test,system,setting,how to read,quantity,value
CN(C(=O)Cc1ccc(Cl)c(Cl)c1)C1COCC1N1CCCC1 (centres unmarked),parasite growth,,,,EC50,16.6 µM
